Assay results gathered from unrelated publications.
Protocols differ between the studies behind these lines. Values joined by “and” are separate records of one study, mostly repeats; a detail may differ. Numbers after ± are the reported error.
KCNT1: Potassium channel subfamily T member 1 (KCNT1, Homo sapiens, UniProt Q5JUK3)
UniProt Q5JUK3, sequence (whole entry, looked up): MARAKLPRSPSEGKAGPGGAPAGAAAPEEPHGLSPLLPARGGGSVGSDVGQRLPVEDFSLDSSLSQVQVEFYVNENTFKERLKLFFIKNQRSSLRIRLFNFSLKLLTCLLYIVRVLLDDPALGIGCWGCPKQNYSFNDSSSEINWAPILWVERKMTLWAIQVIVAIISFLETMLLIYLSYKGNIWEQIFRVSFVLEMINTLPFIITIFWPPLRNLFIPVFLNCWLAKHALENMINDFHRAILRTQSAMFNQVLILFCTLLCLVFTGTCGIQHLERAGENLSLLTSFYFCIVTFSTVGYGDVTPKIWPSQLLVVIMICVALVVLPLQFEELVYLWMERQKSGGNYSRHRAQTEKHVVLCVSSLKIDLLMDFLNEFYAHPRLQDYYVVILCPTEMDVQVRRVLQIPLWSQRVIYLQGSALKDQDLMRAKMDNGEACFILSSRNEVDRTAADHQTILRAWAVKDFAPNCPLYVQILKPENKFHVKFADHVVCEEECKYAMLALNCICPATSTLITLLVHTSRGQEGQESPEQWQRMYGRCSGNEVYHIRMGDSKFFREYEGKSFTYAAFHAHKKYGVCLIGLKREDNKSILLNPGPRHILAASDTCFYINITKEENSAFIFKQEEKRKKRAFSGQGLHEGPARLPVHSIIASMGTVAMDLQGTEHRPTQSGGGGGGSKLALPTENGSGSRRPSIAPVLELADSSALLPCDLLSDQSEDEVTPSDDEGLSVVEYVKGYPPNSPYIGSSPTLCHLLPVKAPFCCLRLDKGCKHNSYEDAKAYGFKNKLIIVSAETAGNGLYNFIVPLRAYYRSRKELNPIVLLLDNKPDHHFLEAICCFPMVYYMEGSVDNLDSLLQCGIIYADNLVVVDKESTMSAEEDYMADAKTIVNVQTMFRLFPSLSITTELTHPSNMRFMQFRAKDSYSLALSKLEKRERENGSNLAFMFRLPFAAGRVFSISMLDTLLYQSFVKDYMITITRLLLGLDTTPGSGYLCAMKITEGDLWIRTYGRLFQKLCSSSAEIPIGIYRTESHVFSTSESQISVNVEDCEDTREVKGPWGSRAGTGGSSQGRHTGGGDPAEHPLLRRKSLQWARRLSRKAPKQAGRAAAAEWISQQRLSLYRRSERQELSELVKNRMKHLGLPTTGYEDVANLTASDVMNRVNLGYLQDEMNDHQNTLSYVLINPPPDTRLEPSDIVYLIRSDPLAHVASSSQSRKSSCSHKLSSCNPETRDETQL
CFTR del508-508: Cystic fibrosis transmembrane conductance regulator (CFTR, Homo sapiens, UniProt P13569, del508-508)
YAP1 WW2 domain: Transcriptional coactivator YAP1, WW2 domain (YAP1, Homo sapiens, UniProt P46937)
T1: miR-21 precursor (Homo sapiens); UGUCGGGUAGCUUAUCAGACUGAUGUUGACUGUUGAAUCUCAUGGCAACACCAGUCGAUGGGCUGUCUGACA
T2: dsDNA, self-complementary 60-mer; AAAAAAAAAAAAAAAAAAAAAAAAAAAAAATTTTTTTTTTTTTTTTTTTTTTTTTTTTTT
B1: UGT1A9 (Homo sapiens, UniProt O60656); chain GKLLVVPMDGSHWFTMRSVVEKLILRGHEVVVVMPEVSWQLGRSLNCTVKTYSTSYTLEDLDREFKAFAHAQWKAQVRSIYSLLMGSYNDIFDLFFSNCRSLFKDKKLVEYLKESSFDAVFLDPFDNCGLIVAKYFSLPSVVFARGILCHYLEEGAQCPAPLSYVPRILLGFSDAMTFKERVRNHIMHLEEHLLCHRFFKNALEIASEILQTPVTEYDLYSHTSIWLLRTDFVLDYPKPVMPNMIFIGGINCHQGKPLPMEFEAYINASGEHGIVVFSLGSMVSEIPEKKAMAIADALGKIPQTVLWRYTGTRPSNLANNTILVKWLPQNDLLGHPMTRAFITHAGSHGVYESICNGVPMVMMPLFGDQMDNAKRMETKGAGVTLNVLEMTSEDLENALKAVINDKSYKENIMRLSSLHKDRPVEPLDLAVFWVEFVMRHKGAPHLRPAAHDLTWYQYHSLDVIGFLLAVVLTVAFITFKCCAYGYRKCLGKKGRVKKAHKSKTH
UniProt O84835, sequence (whole entry, looked up): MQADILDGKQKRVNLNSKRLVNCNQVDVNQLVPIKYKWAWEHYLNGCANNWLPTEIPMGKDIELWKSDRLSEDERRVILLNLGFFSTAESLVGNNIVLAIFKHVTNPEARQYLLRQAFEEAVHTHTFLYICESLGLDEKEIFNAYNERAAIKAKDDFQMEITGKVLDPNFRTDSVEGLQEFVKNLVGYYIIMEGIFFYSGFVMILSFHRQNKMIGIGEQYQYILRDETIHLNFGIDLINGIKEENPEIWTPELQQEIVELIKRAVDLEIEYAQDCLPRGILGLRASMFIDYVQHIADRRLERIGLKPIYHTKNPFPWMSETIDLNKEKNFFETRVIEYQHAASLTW
UniProt Q9Y2U9, sequence (whole entry, looked up): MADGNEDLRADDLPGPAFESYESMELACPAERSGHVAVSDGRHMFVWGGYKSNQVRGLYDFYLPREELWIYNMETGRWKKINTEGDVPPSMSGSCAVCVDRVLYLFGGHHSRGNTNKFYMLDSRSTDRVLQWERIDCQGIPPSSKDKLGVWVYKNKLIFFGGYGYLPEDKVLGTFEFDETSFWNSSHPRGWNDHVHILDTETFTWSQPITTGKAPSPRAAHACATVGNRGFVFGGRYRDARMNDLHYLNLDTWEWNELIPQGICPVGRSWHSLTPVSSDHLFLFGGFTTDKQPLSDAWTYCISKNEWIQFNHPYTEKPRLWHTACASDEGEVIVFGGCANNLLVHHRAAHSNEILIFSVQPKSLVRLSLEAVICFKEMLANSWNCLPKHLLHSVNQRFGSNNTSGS
UniProt P03951, sequence (whole entry, looked up): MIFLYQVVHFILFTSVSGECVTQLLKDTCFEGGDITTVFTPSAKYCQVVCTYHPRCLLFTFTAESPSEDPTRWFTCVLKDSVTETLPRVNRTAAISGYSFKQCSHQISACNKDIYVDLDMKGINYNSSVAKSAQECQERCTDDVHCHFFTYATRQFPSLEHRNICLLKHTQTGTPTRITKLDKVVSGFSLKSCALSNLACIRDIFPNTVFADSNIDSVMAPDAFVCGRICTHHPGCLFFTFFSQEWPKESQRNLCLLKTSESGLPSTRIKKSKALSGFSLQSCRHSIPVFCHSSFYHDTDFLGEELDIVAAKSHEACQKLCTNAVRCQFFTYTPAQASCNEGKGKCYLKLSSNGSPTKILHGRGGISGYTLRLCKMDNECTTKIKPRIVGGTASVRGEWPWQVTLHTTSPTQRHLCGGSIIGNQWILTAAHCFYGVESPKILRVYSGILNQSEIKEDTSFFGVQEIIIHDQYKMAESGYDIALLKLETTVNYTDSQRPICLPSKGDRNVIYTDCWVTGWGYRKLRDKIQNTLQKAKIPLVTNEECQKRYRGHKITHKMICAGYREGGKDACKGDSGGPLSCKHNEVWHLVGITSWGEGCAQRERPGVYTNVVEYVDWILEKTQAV
UniProt Q04206, sequence (whole entry, looked up): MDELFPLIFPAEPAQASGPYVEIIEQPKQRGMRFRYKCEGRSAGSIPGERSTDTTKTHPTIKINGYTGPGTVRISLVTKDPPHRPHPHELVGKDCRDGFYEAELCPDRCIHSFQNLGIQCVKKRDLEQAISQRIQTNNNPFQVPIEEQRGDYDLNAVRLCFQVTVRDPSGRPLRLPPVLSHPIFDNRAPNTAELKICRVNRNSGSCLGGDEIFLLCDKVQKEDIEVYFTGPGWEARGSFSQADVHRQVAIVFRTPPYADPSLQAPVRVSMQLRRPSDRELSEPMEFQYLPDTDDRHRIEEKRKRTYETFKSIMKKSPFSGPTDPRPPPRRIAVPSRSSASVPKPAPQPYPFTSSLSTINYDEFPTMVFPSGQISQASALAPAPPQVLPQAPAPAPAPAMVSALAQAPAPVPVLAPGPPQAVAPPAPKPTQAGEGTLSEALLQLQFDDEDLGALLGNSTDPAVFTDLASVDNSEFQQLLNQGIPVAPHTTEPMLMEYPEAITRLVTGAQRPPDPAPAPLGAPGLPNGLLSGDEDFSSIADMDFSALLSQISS
UniProt Q9NZ08, sequence (whole entry, unmodified, looked up): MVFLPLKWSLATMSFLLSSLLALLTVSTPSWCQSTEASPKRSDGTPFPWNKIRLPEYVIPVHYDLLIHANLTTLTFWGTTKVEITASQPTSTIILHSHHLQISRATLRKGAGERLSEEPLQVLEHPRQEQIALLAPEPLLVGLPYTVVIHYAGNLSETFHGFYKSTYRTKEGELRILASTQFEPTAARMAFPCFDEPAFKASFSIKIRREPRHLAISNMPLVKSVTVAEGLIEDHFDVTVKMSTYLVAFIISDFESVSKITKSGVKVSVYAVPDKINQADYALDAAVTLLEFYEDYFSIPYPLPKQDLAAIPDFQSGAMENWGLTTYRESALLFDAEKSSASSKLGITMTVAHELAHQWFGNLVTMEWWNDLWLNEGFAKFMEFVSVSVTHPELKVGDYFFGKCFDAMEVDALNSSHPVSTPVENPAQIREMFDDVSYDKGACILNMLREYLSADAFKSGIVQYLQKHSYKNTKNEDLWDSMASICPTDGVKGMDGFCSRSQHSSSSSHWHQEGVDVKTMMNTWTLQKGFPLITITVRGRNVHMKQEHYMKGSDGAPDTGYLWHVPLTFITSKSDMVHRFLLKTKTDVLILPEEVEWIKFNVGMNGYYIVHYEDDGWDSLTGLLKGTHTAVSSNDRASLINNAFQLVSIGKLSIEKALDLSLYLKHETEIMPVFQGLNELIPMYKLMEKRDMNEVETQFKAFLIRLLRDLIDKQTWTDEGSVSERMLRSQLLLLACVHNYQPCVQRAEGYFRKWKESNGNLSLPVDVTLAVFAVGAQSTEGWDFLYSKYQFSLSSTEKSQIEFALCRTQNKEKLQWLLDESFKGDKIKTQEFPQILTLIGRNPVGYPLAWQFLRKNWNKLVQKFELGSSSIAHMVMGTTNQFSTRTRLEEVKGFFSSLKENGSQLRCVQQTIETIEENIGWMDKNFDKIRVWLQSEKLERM
UniProt P86046, sequence (whole entry, looked up): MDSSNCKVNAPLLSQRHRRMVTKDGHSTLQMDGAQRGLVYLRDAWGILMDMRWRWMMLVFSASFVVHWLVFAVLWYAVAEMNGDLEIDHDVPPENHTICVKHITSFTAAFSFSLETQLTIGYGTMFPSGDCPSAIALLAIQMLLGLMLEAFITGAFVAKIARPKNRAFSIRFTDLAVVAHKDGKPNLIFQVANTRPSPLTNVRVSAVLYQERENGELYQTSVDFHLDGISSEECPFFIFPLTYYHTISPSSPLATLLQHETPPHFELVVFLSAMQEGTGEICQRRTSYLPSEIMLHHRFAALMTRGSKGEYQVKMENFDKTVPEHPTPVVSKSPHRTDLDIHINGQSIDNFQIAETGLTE
UniProt Q3ZCJ2, sequence (whole entry, looked up): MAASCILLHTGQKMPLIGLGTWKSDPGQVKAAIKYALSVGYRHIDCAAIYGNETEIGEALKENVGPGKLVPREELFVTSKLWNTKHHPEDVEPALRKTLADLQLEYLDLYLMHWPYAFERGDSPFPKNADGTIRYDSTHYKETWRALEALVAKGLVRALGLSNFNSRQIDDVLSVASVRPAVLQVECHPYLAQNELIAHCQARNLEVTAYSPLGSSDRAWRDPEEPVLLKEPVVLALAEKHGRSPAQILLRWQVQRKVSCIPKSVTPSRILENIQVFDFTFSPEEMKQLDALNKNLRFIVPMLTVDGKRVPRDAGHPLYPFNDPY

The ΔH of `CC(C)C[C@H](NC(=O)[C@@H](NC(=O)[C@@H](N)[C@@H](C)O)C(C)C)C(=O)N1CCC[C@H]1C(=O)N1CCC[C@H]1C(=O)N1CCC[C@H]1C(=O)N1CCC[C@H]1C(=O)N[C@@H](Cc1ccc(O)cc1)C(=O)N[C@@H](CCCNC(=N)N)C(=O)N[C@@H](Cc1c[nH]cn1)C(=O)N[C@@H](C)C(=O)N[C@@H](CC(N)=O)C(=O)O` is reported as -10.3 ± 0.35 kcal/mol (Transcriptional coactivator YAP1, WW1 domain (YAP1, Homo sapiens, UniProt P46937); binding, ITC; pH 7.0, 25 °C, WW1 domain).
The relative efflux of `N[C@@H](Cc1cn(Cc2ccccc2)cn1)C(=O)O` is reported as 81% (Large neutral amino acids transporter small subunit 1 (SLC7A5, Homo sapiens, UniProt Q01650); substrate; HEK293 expressing human LAT1; 200 µM, 3 min, together with: [3H]-gabapentin preloaded; baseline: L-phenylalanine).
`COC1=CC(c2cc3ccccc3[nH]2)=N/C1=C\c1[nH]c(C)cc1C`: binding “binds” (T1, miR-21 precursor (Homo sapiens); DSF; 0-20 µM, NaCl 0.25 mM).
With `CSCC[C@H](NC(=O)[C@H](CCC(=O)O)NC(=O)[C@@H]1CCCN1C(=O)[C@@H](NC(=O)[C@@H]1CCCN1)[C@@H](C)O)C(=O)N[C@@H](CCCNC(=N)N)C(=O)N[C@@H](CCC(=O)O)C(=O)N[C@@H](CCCCN)C(=O)N[C@@H](CC(C)C)C(=O)N[C@H]1CSSC[C@@H]2NC(=O)[C@@H](NC(=O)[C@H](Cc3ccc(O)cc3)NC(=O)[C@H](CCCNC(=N)N)NC(=O)[C@H](C)NC(=O)[C@@H]3CCCN3C(=O)[C@H](CC(N)=O)NC(=O)[C@@H](NC(=O)[C@H](C)NC(=O)[C@H](C)NC(=O)[C@H](C)N)[C@@H](C)O)CSSC[C@H](NC(=O)CNC(=O)[C@H](CO)NC(=O)[C@H](CC(C)C)NC2=O)C(=O)N[C@@H]([C@@H](C)O)C(=O)N[C@@H](CCC(N)=O)C(=O)N[C@@H](CCC(N)=O)C(=O)N[C@@H](CC(=O)O)C(=O)N[C@@H](CC(C)C)C(=O)N[C@@H](CC(C)C)C(=O)N[C@@H]([C@@H](C)O)C(=O)N[C@@H](CC(C)C)C(=O)N[C@H](C(=O)N2CCC[C@H]2C(=O)N[C@@H](Cc2ccc(O)cc2)C(=O)O)CSSC[C@@H](C(=O)NCC(=O)NCC(=O)N2CCC[C@H]2C(=O)N[C@@H](CCCNC(=N)N)C(=O)N[C@@H](Cc2c[nH]c3ccccc23)C(=O)N[C@@H](CO)C(=O)N[C@H](C(=O)N[C@@H](CCC(=O)O)C(=O)N[C@@H](C)C(=O)O)[C@@H](C)O)NC(=O)[C@H](C(C)C)NC(=O)[C@H](CCCNC(=N)N)NC(=O)[C@H](C(C)C)NC(=O)[C@H](CC(C)C)NC(=O)[C@H](C)NC(=O)[C@H](CCCNC(=N)N)NC(=O)[C@H](C(C)C)NC(=O)[C@H](Cc2ccccc2)NC(=O)[C@H](Cc2c[nH]cn2)NC(=O)[C@H](Cc2c[nH]cn2)NC(=O)CNC1=O` the Emax was 65.9 ± 3.94% (Relaxin receptor 2 (RXFP2, Homo sapiens, UniProt Q8WXD0); cAMP production, agonist, CAMYEL BRET; HEK293 expressing RXFP2; 5 min, 37 °C; baseline: forskolin 10 µM).
The Vmax of `IINFEKE` is reported as 141 ± 1 nmol/min/µg (Endoplasmic reticulum aminopeptidase 1 (ERAP1, Homo sapiens, UniProt Q9NZ08, V737R); L-AMC hydrolysis, activator; peptide; 100 µM, 5 min, pH 8.0, 27 °C, mutant V737R, together with: L-AMC varied from 0 µM).
`CC(C)[C@H](NC(=O)OCc1ccccc1)C(=O)N[C@H](C=O)Cc1ccccc1`: “bound fibrinogen fluorescence” 415 ± 55 MFI (integrin alphaM beta2 (human); ligand binding, inhibitor, flow cytometry; human neutrophils; concentration not given, 1 h, 37 °C, integrin clustering inhibitor, together with: Alexa 488-labelled fibrinogen; baseline: no inhibitor, lower means less binding).
The efficacy of `Cc1ccc2cccc(S(=O)(=O)N3CC(c4nc(-c5ccc(F)cc5)no4)C3)c2n1` is reported as 100% (KCNT1; ion current, activator, automated patch clamp; CHO; 30 µM; baseline: bepridil 60 µM).
With `YSLAAVVLGLVQSLNRQRQKQLLNE` the koff1 was 8.38 s⁻¹ and 8.4 s⁻¹ (Calmodulin-1 (Calm1, Rattus norvegicus, UniProt P0DP29); Ca2+ dissociation, stopped-flow quin-2 fluorescence; peptide; 2 µM, pH 7.4, 22 °C, together with: Ca2+-calmodulin complex).
For `O=S(=O)(Sc1ccccc1Br)c1ccccc1Br`, the inhibition was 90 ± 0.3% (tubulin; colchicine binding, [3H]colchicine binding; 50 µM, 10 min, 37 °C, together with: [3H]colchicine 5.0 µM).
With `Clc1ccc(-c2cs/c(=N/N=C\c3c[nH]c4ccccc34)n2Cc2ccccc2)cc1` the inhibition was < 50% (Aldo-keto reductase family 1 member A1 (Bos taurus, UniProt Q3ZCJ2); enzyme activity, inhibitor, absorbance; 1 mM).
With `B1 (UGT1A9)` the Vmax/Km was 60 µL/min/mg (O=c1c(O)c(-c2ccc(O)cc2O)oc2cc(O)cc(O)c12; steady-state kinetics; pH 7.4, 37 °C).
`CCOc1ccccc1S(=O)(=O)N1CC(c2nc(-c3ccncc3)no2)C1` — result for activity class: “inactive” (KCNT1; Tl+ flux, inhibitor; HEK293 expressing KCNT1; 30 µM).
With `COc1cccc(C(=O)NCCNc2nc3cc(C)cc(C)c3cc2C#N)c1` the Vmax was 300 µM/s (CFTR del508-508; CFTR correction, corrector, iodide influx rate; FRT expressing YFP-H148Q/I152L; up to 25 µM, 16-20 h, 37 °C, together with: forskolin 20 µM, genistein 50 µM).
Under “second-order rate constant”, `NC(=O)NO` is recorded as 0.009 ± 0.002 M⁻¹ s⁻¹ (Ribonucleoside-diphosphate reductase subunit beta (nrdB, Chlamydia trachomatis serovar D, UniProt O84835); Mn(IV)/Fe(III) cofactor reduction, stopped-flow absorption; 22 °C, free beta2 subunit without alpha2).
`Nc1ccc(-c2nc([C@H]3CCc4cc(-c5cc(Cl)ccc5-n5cnnn5)cc(=O)n43)c(F)[nH]2)c(F)n1` gave a maximum inhibition of 92 ± 2.5% (Coagulation factor XI (F11, Homo sapiens, UniProt P03951); factor XI coagulant activity; human, blood; oral, 250 mg once daily, 14 days, fed).
With `CC(C)C[C@H](NC(=O)[C@@H](NC(=O)[C@@H](N)[C@@H](C)O)C(C)C)C(=O)N1CCC[C@H]1C(=O)N1CCC[C@H]1C(=O)N1CCC[C@H]1C(=O)N[C@@H](C)C(=O)N[C@@H](Cc1ccc(O)cc1)C(=O)N[C@@H](CCCNC(=N)N)C(=O)N[C@@H](Cc1c[nH]cn1)C(=O)N[C@@H](CCCNC(=N)N)C(=O)N[C@@H](CC(N)=O)C(=O)O` the ΔG was -5.33 ± 0.08 kcal/mol (YAP1 WW2 domain; binding, ITC; pH 7.0, 25 °C, WW2 domain).
The current potentiation of `CC(=O)[C@H]1CC[C@H]2[C@@H]3CCC4=CC(=O)CC[C@]4(C)[C@H]3CC[C@]12C` is reported as ~5 fold (Kcnj13 (Mus musculus, UniProt P86046); activator, whole-cell patch clamp; HEK293 transfected; 10 µM, pH 7.3).
`DEGEVIVFGG`: “fraction of protein bound” 1.7% (Kelch domain-containing protein 2 (UniProt Q9Y2U9); native mass spectrometry; peptide, 200 mM ammonium acetate; 20 µM Kelch domain-containing protein 2, pH 7; baseline: total Kelch domain-containing protein 2 signal).
`Cc1cc(C)c2cc(C#N)c(NCCNC(=O)c3ccccn3)nc2c1`: EC50 “inactive” (CFTR del508-508; ΔF508-CFTR correction, corrector; FRT; up to 25 µM, 37 °C, together with: forskolin 20 µM + genistein 50 µM).
For `O=C1NC(=O)C(c2ccccc2)(c2ccccc2)N1`, uptake read “no effect” (Monocarboxylate transporter 9 (Slc16a9, Rattus norvegicus, UniProt M0RCI4); substrate, Xenopus oocytes; 9.09 µM, 20 °C; baseline: water-injected oocytes).
With `Nc1ncnc2c1ncn2[C@@H]1O[C@H](COP(=O)(O)OP(=O)(O)OP(=O)(O)O)[C@@H](O)[C@H]1O` the ΔTm was 4.1 °C (Histidine--tRNA ligase, cytoplasmic (HARS1, Homo sapiens, UniProt P12081, R362H); thermal stability, DSF).
The current change of `NC(=NCc1ccccc1)NC(=O)c1nc(Cl)c(N)nc1N` is reported as 7.81 µA (Degenerin mec-4 (mec-4, Caenorhabditis elegans, UniProt P24612, A713T); ion current, two-electrode voltage clamp; Xenopus oocytes coexpressing MEC-2; 30 µM, -85 mV; baseline: uninjected oocytes, positive inhibition, negative potentiation).
With `C/C=C1/C[N+]2(C)CC[C@@]34C[C@H]5[C@@H]6C[C@H]7c8c(c9ccccc9n8C)C[C@@H]([C@@H]6CO[C@@]5(C)O[C@@]35[C@@H]2C[C@@H]1[C@@H](C(=O)OC)N5c1ccccc14)N7C.[Cl-]` (some centres unmarked) the ED50 was > 20 µM (Transcription factor p65 (RELA, Homo sapiens, UniProt Q04206); DNA binding, inhibitor, ELISA; HeLa nuclear extract).
With `CC(C)C[C@H](NC(=O)[C@H](C)NC(=O)[C@@H](N)[C@@H](C)O)C(=O)N1CCC[C@H]1C(=O)N1CCC[C@H]1C(=O)N1CCC[C@H]1C(=O)N1CCC[C@H]1C(=O)N[C@@H](Cc1ccc(O)cc1)C(=O)N[C@@H](CCCNC(=N)N)C(=O)N[C@@H](Cc1c[nH]cn1)C(=O)N[C@@H](CCCNC(=N)N)C(=O)N[C@@H](CC(N)=O)C(=O)O` the ΔG was -5.76 ± 0.16 kcal/mol (YAP1 WW2 domain; binding, ITC; pH 7.0, 25 °C, WW2 domain).
`NC[C@@H]1O[C@H](O[C@H]2[C@@H](O)[C@H](O[C@@H]3[C@@H](O)[C@H](N)C[C@H](N)[C@H]3O[C@H]3O[C@H](CN)[C@@H](O)[C@H](O)[C@H]3N)O[C@@H]2CO)[C@H](N)[C@@H](O)[C@@H]1O`: binding “binds weakly” (T2, dsDNA, self-complementary 60-mer; competitor, fluorescence intercalator displacement; pH 6.8, 20 °C, KCl 100 mM, together with: thiazole orange).
`COc1ccc(-c2nc(OCC(F)(F)F)nn2-c2ccc(OC)cc2)cc1` [carbon-11 labelled] has a VT deviation of ≤ 10% (Prostaglandin G/H synthase 1 (Macaca mulatta, UniProt F6S984); PET Logan analysis; rhesus monkey, whole brain; first 80 min data; baseline: full 120 min scan).

For quick reference, copied from above:
The current potentiation of `CC(=O)[C@H]1CC[C@H]2[C@@H]3CCC4=CC(=O)CC[C@]4(C)[C@H]3CC[C@]12C` is reported as ~5 fold (Kcnj13 (Mus musculus, UniProt P86046); activator, whole-cell patch clamp; HEK293 transfected; 10 µM, pH 7.3).
With `C/C=C1/C[N+]2(C)CC[C@@]34C[C@H]5[C@@H]6C[C@H]7c8c(c9ccccc9n8C)C[C@@H]([C@@H]6CO[C@@]5(C)O[C@@]35[C@@H]2C[C@@H]1[C@@H](C(=O)OC)N5c1ccccc14)N7C.[Cl-]` (some centres unmarked) the ED50 was > 20 µM (Transcription factor p65 (RELA, Homo sapiens, UniProt Q04206); DNA binding, inhibitor, ELISA; HeLa nuclear extract).
